Results from different studies.
Lines come from different studies, so protocols differ. Numbers after ± are the reported error. Converted amounts (≈) assume the structure as drawn.

With `CC(=O)c1c(O)c(C)c(O)c2c1OC1=CC(=O)/C3=C(/C)N[C@H](C(=O)O)CC1=CC=C(O)C=C[C@@]2(C)C3=O` the MFC/MIC ratio was 32 (Candida tropicalis).
Under lesion size, `C=Cc1cc(OC)c2c(c1)c(=O)oc1c2cc(OC)c2c(O)ccc([C@@H]3O[C@H](C)[C@H](O)[C@@](C)(O)[C@H]3O)c21` is recorded as “decreased” (Staphylococcus aureus; MRSA USA300, BALB/c mouse, epicutaneous infection; dose not given, day 16; relative to: vehicle).
For `CC[C@H](C)[C@H](NC(=O)[C@H](CCSC)NC(=O)[C@H](CO)NC(=O)[C@H](C)NC(=O)CNC(=O)[C@@H](NC(=O)[C@@H](NC(=O)[C@H](CC(C)C)NC(=O)[C@H](CC(C)C)NC(=O)CNC(=O)CNC(=O)[C@H](C)NC(=O)[C@@H](NC(=O)CNC(=O)[C@H](CC(C)C)NC(=O)[C@H](CCC(N)=O)NC(=O)[C@H](CC(C)C)NC(=O)CNC(=O)[C@H](Cc1ccccc1)NC(=O)[C@H](CCCNC(=N)N)NC(=O)[C@H](C)N)[C@@H](C)O)[C@@H](C)O)[C@@H](C)CC)C(=O)N[C@@H](CCC(N)=O)C(=O)N[C@@H](CCCCN)C(=O)N[C@@H](CC(C)C)C(=O)O`, antibacterial activity read “active” (Gram-negative bacteria; MIC; concentration not given).
With `C/C=C/c1ccc(OC(C)=O)c(OC)c1` the antifeedant index was 54.5% (Spodoptera frugiperda; larvae; 250 µg/mL; relative to: untreated control).
The lethal concentration of `CC[C@H](C)[C@H](NC(=O)[C@H](CCCCN)NC(=O)[C@H](CCCCN)NC(=O)[C@H](CC(C)C)NC(=O)[C@H](CCCCN)NC(=O)[C@H](CCC(=O)O)NC(=O)[C@H](CCCCN)NC(=O)[C@@H](NC(=O)[C@H](CCCCN)NC(=O)[C@H](CC(N)=O)NC(=O)[C@H](CCCNC(=N)N)NC(=O)[C@H](Cc1ccccc1)NC(=O)[C@H](CCCCN)NC(=O)[C@H](CCCNC(=N)N)NC(=O)[C@H](CC(C)C)NC(=O)[C@H](CCCNC(=N)N)NC(=O)[C@H](CCCCN)NC(=O)[C@H](CCCNC(=N)N)NC(=O)[C@@H](N)CC(C)C)[C@@H](C)CC)C(=O)NCC(=O)N[C@@H](CCC(N)=O)C(=O)N[C@@H](CCCCN)C(=O)N[C@H](C(=O)N[C@@H](CCC(N)=O)C(=O)NCC(=O)N[C@@H](Cc1ccccc1)C(=O)N[C@H](C(=O)N1CCC[C@H]1C(=O)N[C@@H](CCCCN)C(=O)N[C@@H](CC(C)C)C(=O)O)C(C)C)[C@@H](C)CC` is reported as 1.44 µM (Staphylococcus; inhibition zone; methicillin-resistant coagulase-negative P1369).
With `CC(=O)O[C@@H]1C[C@@H](C)O[C@H]2O[C@@H]3C[C@@H]4CC[C@@H]5[C@H](CC[C@]6(C)[C@@H](C7=CC(=O)OC7)CC[C@]56O)[C@@]4(C)C[C@H]3O[C@]21O` the viability effect was 99% (Schistosoma mansoni; microscopic viability score; adult worms; 1 µM, 72 h).
For `C=CCc1ccc(OCC=C(C)C)c(OC)c1`, the antifeedant index was 46.2% (Spodoptera frugiperda; larvae; 250 µg/mL; relative to: untreated control).
With `N#CCNC(=O)c1cnccc1C(F)(F)F` the climbing flies was 38 ± 6% (Drosophila melanogaster; negative geotaxis; 20 µM, 10 s, 10% sucrose feed, 3 h).
The inhibition of `CS(=O)(=O)c1ccc(/C=N/NC(=O)Cn2ccc(=O)c3ccccc32)cc1` is reported as 8.9% (Bipolaris maydis; microbial growth; 50 µg/mL).
For `COc1ccc(-n2c(SCCCN3CCOCC3)nnc2[C@H](Cc2ccccc2)NC(=O)Cc2c(C)[nH]c3ccccc23)cc1`, the infection was 0.09 ± 0.01% (HIV-1 NL4-3; single-round infection; 5 µM, early stage; relative to: untreated).
For `CCCCCCCCCCCCCC(=O)N[C@H](CCN)C(=O)N[C@@H]1C(=O)N[C@@H](CCN)C(=O)N[C@@H](CC(C)C)C(=O)N[C@@H](CCN)C(=O)N[C@H](Cc2ccccc2)C(=O)N[C@@H](CC(C)C)C(=O)N[C@@H](CCN)C(=O)N[C@H](CCN)C(=O)N[C@@H](C(C)C)C(=O)N[C@@H](CC(=O)O)C(=O)O[C@@H]1C`, “time to complete killing” read ≤ 4 h (Staphylococcus aureus, Escherichia coli; BNCC 186335, ATCC 25922; 1 × MIC).
The selectivity index of `CC1(C)NCCC[C@]2(C)[C@H]3CC=C4[C@@H]5C[C@@](C)(CO)CC[C@]5(C)CC[C@@]4(C)[C@]3(C)CC[C@@H]12` is reported as 172 (Human cytomegalovirus; HFF, AD169; relative to: CC50 over EC50).
For `CCC1c2cc(OC)c(O)cc2C(c2ccc(O)c(OC)c2)C1C` (stereo not drawn), the antifeedant index was 23.5% (Spodoptera frugiperda; larvae; 250 µg/mL; relative to: untreated control).
`CC(C)C[C@@H]1NC(=O)[C@H](CCCCN)NC(=O)[C@H](C(C)C)NC(=O)[C@@H]2CCCN2C(=O)[C@@H](Cc2ccc(O)cc2)NC(=O)[C@H](CC(C)C)NC(=O)[C@H](CCCCN)NC(=O)[C@H](C(C)C)NC(=O)[C@H](CCCCN)NC(=O)[C@H](CC(C)C)NC(=O)[C@@H]2CCCN2C(=O)[C@@H](Cc2ccc(O)cc2)NC(=O)[C@H](CCCCN)NC1=O` — result for “MIC geometric mean”: 26.3 µg/mL (≈ 16.7 µM) (Gram-negative bacteria; 24 h, 7 strains).
With `CC[C@H](C)[C@H](NC(=O)[C@H](CO)NC(=O)[C@H](CO)NC(=O)[C@H](Cc1ccccc1)NC(=O)CN)C(=O)N[C@@H](Cc1ccccc1)C(=O)N[C@@H](CCCNC(=N)N)C(=O)NCC(=O)N[C@H](C(=O)N[C@@H](C)C(=O)N[C@@H](CCCCN)C(N)=O)C(C)C` the MBC was > 128 µM (Escherichia coli; ATCC 8739; together with: 0.5 mM KCl).
With `Cc1nc2c(cnn2C(C)C)cc1C(=O)NCc1ccc(C(C)O)c(C)n1` (stereo not drawn) the median survival was 40 days (Drosophila melanogaster; APP transgenic (Alzheimer model); in food, 100 µM, 168 h, from adult day 7).
`CC(=O)N[C@@H](CS)C(=O)N[C@@H](CO)C(=O)N[C@@H](CO)C(=O)N[C@@H](Cc1c[nH]c2ccccc12)C(=O)N[C@@H](Cc1ccc(O)cc1)C(=O)N1CCC[C@H]1C(=O)N[C@@H](Cc1ccccc1)C(=O)N[C@@H](CO)C(=O)N[C@@H](CCC(N)=O)C(=O)N[C@@H](Cc1ccc(O)cc1)C(=O)N[C@@H](CCC(N)=O)C(=O)N[C@@H](Cc1c[nH]c2ccccc12)C(=O)N[C@@H](Cc1c[nH]c2ccccc12)C(=O)N[C@@H](CCCCN)C(N)=O` — result for neutralisation activity: “active” (HIV-1; NL4-3 (X4); concentration not given).
With `CC[C@H](C)[C@H](NC(=O)[C@H](CCCCN)NC(=O)[C@H](CCCCN)NC(=O)[C@H](CC(C)C)NC(=O)[C@H](CCCCN)NC(=O)[C@H](CCC(=O)O)NC(=O)[C@H](CCCCN)NC(=O)[C@@H](NC(=O)[C@H](CCCCN)NC(=O)[C@H](CC(N)=O)NC(=O)[C@H](CCCNC(=N)N)NC(=O)[C@H](Cc1ccccc1)NC(=O)[C@H](CCCCN)NC(=O)[C@H](CCCNC(=N)N)NC(=O)[C@H](CC(C)C)NC(=O)[C@H](CCCNC(=N)N)NC(=O)[C@H](CCCCN)NC(=O)[C@H](CCCNC(=N)N)NC(=O)[C@H](CC(C)C)NC(=O)CN)[C@@H](C)CC)C(=O)NCC(=O)N[C@@H](CCC(N)=O)C(=O)N[C@@H](CCCCN)C(=O)N[C@H](C(=O)N[C@@H](CCC(N)=O)C(=O)NCC(=O)N[C@@H](Cc1ccccc1)C(=O)N[C@H](C(=O)N1CCC[C@H]1C(=O)N[C@@H](CCCCN)C(=O)N[C@@H](CC(C)C)C(=O)N[C@@H](C)C(=O)N1CCC[C@H]1C(=O)N[C@@H](CCCNC(=N)N)C(=O)N[C@H](C(=O)N[C@@H](CC(=O)O)C(=O)N[C@@H](Cc1ccc(O)cc1)C(=O)O)[C@@H](C)O)C(C)C)[C@@H](C)CC` the lethal concentration was 1.38 µM (Staphylococcus warneri; inhibition zone; ATCC 1.2824; LB agar, overnight).

Some of these lines once more:
For `C=CCc1ccc(OCC=C(C)C)c(OC)c1`, the antifeedant index was 46.2% (Spodoptera frugiperda; larvae; 250 µg/mL; relative to: untreated control).
With `N#CCNC(=O)c1cnccc1C(F)(F)F` the climbing flies was 38 ± 6% (Drosophila melanogaster; negative geotaxis; 20 µM, 10 s, 10% sucrose feed, 3 h).
